# Published values collected from several papers.
# “And” joins repeats or separate records; there may be more than shown. Numbers after ± are the reported error.
# B1: recombinant human GDNF; sequence looked up; chain SPDKQMAVLPRRERNRQAAAANPENSRGKGRRGQRGKNRGCVLTAIHLNVTDLGLGYETKEELIFRYCSGSCDAAETTYDKILKNLSRNRRLVSDKVGQACCRPIAFDDDLSFLDDNLVYHILRKHSAKRCGCI
# B2: interferon gamma; sequence looked up; chain QDPYVKEAENLKKYFNAGHSDVADNGTLFLGILKNWKEESDRKIMQSQIVSFYFKLFKNFKDDQSIQKSVETIKEDMNVKFFNSNKKKRDDFEKLTNYSVTDLNVQRKAIHELIQVMAELSPAAKTGKRKRSQMLFRG
Molecule,tested on,test,test system,conditions,how to read,measurement,value
heparin sodium,,,human,"intravenous infusion, 8 IU/kg/h, day 1 to 6",relative to: baseline,AUEC of PT ratio,137
cotadutide,,"metabolomics, item: hepatic cysteine","ob/ob mice on AMLN diet, NASH model, liver",dose not given,,metabolite level,0.63 ± 0.15 scaled intensity
B1 (recombinant human GDNF),,"CNN cell counting, item: tyrosine hydroxylase","rat, 6-OHDA lesion model, substantia nigra pars compacta, lesioned side",3 µg/24 h,,TH-immunoreactive cell count,431 ± 112
maraviroc,,"Western blot, item: GSK-3β phospho-Ser9","mice, NSG hu-PBL, HIV-infected, frontal cortex","i.p., 120 mg/kg twice daily, 3 weeks post infection, normalised to total GSK-3β","relative to: HIV-infected untreated mice, increase",protein level,2.3 fold
semaglutide,,,"Wistar rat, male, diet-induced obese","subcutaneous, dose not given, 14 days",relative to: vehicle,body weight reduction,-8.5%
Pam2CSK4,,,"APP/PS1 mouse, cortex","local injection, dose not given, unit not given",relative to: injected over adjacent side,GFAP level,1.12 and 0.414
difelikefalin,,,Japanese haemodialysis patients with pruritus,"intravenous, 1.0 µg/kg, 8 weeks",,PGIC very much improved,31.7%
B2 (interferon gamma),,proteinuria inducer,FVB mice,"dose not given, 72 h",,urine albumin/creatinine ratio,12.4 and 10.9 and 32.3 and 24.3 and 137 and 13.8 and 55.7 and 20.3
cyclophilin B (human),CYB5R4 knockout human cells,"PP6 interaction, 3xFLAG-PP6C IP-MS",,concentration not given,relative to: CYB5R4 KO over parental,log2 fold change,-1.55
colistin,Enterobacter cloacae,,clinical isolate RKI 546/13,,,MIC,2 µg/mL
human Fas,PP6C (human),"co-immunoprecipitation, IP-MS",CYB5R4 knockout cells,concentration not given,relative to: CYB5R4 knockout over parental,log2 fold change,-0.31
liraglutide,,,"Wistar rat, female, diet-induced obese, blood, fasted","subcutaneous, dose not given, after 4 weeks treatment",,serum insulin,14.7 ± 2 ng/mL

# Repeated from above:
Molecule,tested on,test,test system,conditions,how to read,measurement,value
maraviroc,,"Western blot, item: GSK-3β phospho-Ser9","mice, NSG hu-PBL, HIV-infected, frontal cortex","i.p., 120 mg/kg twice daily, 3 weeks post infection, normalised to total GSK-3β","relative to: HIV-infected untreated mice, increase",protein level,2.3 fold
semaglutide,,,"Wistar rat, male, diet-induced obese","subcutaneous, dose not given, 14 days",relative to: vehicle,body weight reduction,-8.5%
